Published values from different studies.
Protocols differ between the studies behind these lines. “And” joins repeats or separate records; there may be more than shown. Numbers after ± are the reported error.
ABO G235S/G268A/L266M/R176G: Histo-blood group ABO system transferase (ABO, Homo sapiens, UniProt P16442, G235S/G268A/L266M/R176G)
Sequence of UniProt P16442 (whole entry, unmodified, looked up): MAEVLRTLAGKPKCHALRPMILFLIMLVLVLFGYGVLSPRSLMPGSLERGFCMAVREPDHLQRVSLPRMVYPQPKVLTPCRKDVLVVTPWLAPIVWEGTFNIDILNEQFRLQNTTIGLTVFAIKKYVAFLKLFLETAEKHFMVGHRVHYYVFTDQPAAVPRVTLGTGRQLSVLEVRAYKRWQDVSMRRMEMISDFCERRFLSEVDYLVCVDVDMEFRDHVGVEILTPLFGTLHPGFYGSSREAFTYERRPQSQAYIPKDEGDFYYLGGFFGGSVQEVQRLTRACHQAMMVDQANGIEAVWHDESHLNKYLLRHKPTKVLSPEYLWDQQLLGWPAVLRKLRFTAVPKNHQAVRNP
RIPK1: Receptor-interacting serine/threonine-protein kinase 1 (RIPK1, Homo sapiens, UniProt Q13546)
Sequence of UniProt Q13546 (whole entry, looked up): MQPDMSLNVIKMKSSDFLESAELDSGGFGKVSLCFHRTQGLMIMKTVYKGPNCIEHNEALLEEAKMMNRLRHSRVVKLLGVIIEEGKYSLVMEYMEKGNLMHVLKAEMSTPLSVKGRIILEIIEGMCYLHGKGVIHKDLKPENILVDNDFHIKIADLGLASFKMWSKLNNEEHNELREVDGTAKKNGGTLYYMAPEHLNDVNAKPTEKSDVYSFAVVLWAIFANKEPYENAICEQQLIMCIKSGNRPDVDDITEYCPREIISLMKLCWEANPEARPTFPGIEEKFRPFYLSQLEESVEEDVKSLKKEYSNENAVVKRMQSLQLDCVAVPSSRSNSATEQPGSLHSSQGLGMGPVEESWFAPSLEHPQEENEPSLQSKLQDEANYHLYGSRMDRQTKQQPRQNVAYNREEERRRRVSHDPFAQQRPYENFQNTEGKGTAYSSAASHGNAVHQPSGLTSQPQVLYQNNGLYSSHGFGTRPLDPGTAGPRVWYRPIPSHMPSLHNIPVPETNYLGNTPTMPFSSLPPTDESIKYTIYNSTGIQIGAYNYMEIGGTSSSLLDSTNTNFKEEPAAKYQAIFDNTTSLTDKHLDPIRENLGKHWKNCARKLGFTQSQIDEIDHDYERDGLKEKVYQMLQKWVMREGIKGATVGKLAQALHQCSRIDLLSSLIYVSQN
Metalloproteinase inhibitor 3: Metalloproteinase inhibitor 3 (Homo sapiens, UniProt P35625)
Sequence of UniProt P35625 (whole entry, looked up): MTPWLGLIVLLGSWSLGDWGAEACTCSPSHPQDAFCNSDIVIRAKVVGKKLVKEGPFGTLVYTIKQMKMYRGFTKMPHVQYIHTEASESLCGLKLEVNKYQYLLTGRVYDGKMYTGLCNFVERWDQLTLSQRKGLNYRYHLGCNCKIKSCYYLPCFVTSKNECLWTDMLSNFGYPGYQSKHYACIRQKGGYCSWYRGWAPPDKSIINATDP
ADORA1: Adenosine receptor A1 (ADORA1, Homo sapiens, UniProt P30542)
Sequence of UniProt P30542 (whole entry, looked up): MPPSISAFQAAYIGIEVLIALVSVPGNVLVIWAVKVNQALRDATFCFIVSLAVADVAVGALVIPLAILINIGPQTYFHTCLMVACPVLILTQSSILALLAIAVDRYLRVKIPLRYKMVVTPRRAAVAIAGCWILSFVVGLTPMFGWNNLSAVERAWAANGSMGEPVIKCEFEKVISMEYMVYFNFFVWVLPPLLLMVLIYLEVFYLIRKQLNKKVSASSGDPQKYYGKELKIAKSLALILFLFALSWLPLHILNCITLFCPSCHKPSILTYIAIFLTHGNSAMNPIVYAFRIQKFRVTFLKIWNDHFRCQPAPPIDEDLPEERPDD
Sequence of UniProt P07814 (whole entry, looked up): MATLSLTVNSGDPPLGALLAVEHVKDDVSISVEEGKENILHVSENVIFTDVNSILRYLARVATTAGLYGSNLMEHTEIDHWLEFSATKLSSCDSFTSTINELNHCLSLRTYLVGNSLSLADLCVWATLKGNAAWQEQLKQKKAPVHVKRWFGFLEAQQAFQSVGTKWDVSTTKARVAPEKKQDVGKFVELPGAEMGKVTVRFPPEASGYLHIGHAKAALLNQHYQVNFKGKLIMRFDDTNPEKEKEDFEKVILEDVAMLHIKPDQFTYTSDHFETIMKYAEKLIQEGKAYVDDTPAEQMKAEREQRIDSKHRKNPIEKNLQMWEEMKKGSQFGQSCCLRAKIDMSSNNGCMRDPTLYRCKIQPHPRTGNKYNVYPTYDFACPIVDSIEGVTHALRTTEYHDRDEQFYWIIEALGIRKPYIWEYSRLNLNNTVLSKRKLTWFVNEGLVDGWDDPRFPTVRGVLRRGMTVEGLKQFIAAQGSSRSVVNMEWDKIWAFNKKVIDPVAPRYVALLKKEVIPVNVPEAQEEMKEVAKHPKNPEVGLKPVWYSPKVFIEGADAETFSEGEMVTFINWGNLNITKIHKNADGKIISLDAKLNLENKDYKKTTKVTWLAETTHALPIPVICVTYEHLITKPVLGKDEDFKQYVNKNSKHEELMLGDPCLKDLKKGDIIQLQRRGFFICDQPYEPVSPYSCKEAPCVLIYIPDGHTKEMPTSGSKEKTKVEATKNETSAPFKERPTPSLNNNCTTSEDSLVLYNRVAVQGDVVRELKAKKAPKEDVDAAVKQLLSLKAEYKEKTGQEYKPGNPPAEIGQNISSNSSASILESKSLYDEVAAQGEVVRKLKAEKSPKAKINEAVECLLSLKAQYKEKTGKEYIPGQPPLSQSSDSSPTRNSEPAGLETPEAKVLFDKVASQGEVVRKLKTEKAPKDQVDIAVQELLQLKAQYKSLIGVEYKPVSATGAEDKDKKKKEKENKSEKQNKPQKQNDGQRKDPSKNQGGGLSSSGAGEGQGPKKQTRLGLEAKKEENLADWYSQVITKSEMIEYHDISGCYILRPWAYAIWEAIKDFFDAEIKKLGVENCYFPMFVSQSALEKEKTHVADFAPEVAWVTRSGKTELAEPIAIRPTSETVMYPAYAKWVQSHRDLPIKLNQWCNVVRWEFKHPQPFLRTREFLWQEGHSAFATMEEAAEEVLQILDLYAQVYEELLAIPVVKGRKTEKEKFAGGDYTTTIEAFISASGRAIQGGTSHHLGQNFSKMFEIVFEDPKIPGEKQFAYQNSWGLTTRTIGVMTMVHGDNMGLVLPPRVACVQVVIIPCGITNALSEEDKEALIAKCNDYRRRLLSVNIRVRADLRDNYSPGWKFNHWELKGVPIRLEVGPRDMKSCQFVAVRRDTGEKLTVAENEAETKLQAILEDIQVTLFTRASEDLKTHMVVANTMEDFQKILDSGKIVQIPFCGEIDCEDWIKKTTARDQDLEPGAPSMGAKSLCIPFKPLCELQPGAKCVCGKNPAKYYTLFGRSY
Sequence of UniProt P05067 (whole entry, looked up): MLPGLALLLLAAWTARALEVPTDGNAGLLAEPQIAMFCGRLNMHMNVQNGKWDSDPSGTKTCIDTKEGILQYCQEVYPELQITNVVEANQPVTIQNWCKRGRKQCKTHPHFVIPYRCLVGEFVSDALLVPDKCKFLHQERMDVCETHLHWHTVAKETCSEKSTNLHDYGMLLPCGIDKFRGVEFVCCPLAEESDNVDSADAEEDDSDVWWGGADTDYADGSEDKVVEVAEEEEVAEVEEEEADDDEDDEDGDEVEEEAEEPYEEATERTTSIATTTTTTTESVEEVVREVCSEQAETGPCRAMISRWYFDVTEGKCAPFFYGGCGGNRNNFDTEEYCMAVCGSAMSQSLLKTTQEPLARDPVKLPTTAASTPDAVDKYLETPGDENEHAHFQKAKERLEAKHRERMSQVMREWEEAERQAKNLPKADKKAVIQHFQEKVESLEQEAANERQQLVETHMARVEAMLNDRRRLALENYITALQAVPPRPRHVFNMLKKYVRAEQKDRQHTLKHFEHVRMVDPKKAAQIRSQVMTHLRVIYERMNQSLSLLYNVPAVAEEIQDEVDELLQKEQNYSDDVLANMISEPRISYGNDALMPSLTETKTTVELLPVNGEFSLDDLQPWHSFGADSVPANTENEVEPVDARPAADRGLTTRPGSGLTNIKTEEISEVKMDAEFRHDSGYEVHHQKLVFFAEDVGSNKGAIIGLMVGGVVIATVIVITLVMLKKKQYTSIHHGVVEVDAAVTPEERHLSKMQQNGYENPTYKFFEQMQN
Sequence of UniProt P51671 (whole entry, looked up): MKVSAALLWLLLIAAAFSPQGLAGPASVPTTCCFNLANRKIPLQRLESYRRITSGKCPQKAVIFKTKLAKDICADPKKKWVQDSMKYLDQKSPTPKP
Sequence of UniProt P0DMS8 (whole entry, looked up): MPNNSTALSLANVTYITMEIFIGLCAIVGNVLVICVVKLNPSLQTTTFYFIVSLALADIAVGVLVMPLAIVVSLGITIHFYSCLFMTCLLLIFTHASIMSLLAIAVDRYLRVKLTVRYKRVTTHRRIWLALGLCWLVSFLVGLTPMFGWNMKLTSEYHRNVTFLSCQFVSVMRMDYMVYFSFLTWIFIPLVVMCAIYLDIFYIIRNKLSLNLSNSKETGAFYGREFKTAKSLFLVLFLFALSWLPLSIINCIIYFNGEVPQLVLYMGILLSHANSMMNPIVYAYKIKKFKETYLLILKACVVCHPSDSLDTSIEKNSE
Sequence of UniProt Q9Y478 (whole entry, unmodified, looked up): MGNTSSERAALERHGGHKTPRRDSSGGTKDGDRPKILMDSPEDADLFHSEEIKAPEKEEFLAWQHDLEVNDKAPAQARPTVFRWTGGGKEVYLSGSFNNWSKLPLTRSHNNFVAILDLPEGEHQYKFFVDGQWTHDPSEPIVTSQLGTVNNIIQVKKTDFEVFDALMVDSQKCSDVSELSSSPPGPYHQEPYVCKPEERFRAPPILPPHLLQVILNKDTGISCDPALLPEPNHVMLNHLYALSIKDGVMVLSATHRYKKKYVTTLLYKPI
Sequence of UniProt P54619 (whole entry, unmodified, looked up): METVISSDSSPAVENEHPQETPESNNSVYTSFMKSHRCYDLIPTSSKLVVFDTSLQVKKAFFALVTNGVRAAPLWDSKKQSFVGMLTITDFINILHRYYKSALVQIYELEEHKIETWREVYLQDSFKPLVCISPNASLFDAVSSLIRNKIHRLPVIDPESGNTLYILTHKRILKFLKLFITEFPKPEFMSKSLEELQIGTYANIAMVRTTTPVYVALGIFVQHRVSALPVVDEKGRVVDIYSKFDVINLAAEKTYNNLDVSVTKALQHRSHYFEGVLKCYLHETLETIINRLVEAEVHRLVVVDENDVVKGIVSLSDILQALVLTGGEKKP

SMILES	target	assay	system	setting	Kd
C=CCCCCCCO[C@@H]1O[C@H](CO)[C@@H](O)[C@H](O[C@@H]2O[C@H](CO)[C@H](O)[C@H](O)[C@H]2O[C@@H]2O[C@@H](C)[C@@H](O)[C@@H](O)[C@@H]2O)[C@H]1NC(C)=O	ABO G235S/G268A/L266M/R176G	methyl-TROSY NMR titration lineshape analysis	–	apo enzyme	3200 ± 100 µM
C[n+]1ccc(/C=N/NC(=O)c2cncc(C(=O)N/N=C/c3cc[n+](C)c4ccccc34)n2)c2ccccc21	telomeric antiparallel G4 DNA	binding, native ESI-MS	100 mM trimethylammonium acetate	1 mM KCl	< 0.001 µM
Cc1ccc(Oc2nc3cc(-c4ccc5c(ccn5C)c4)c(Cl)cc3[nH]2)cc1C(=O)O	AMP-activated protein kinase (AMPK) alpha-1/beta-1/gamma-1, beta1 residues 185–270 (PRKAG1/PRKAA1/PRKAB1, Homo sapiens, UniProt P54619+Q13131+Q9Y478)	binding, circular dichroism titration	–	ΔCBM complex	51 µM
C[C@@H]1Cc2cc(-c3ccnc4ncnn34)ccc2O1	WD repeat-containing protein 55 (WDR55, Homo sapiens, UniProt Q9H6Y2)	–	–	–	> 25 µM
Cc1cc(N2CC[C@@](C#N)(C3CC3)C2=O)cc(NC(=O)Cc2ccccc2)n1	Bifunctional glutamate/proline--tRNA ligase, prolyl-tRNA synthetase domain (EPRS1, Homo sapiens, UniProt P07814)	binding, microscale thermophoresis	–	–	0.0208 µM and 0.0352 µM
CN(C)CCNC(=O)c1cccc2c(NCCCCc3c(N)nc(N)nc3N)c3ccccc3nc12	RNA with A–A mismatch	binding, ITC	–	25 °C, 2	2270 ± 360 µM
CC(C)C[C@H](NC(=O)[C@H](CC(C)C)NC(=O)[C@H](CC(=O)O)NC(=O)[C@@H](N)CCCCN)C(=O)N[C@@H](CCC(=O)O)C(=O)N[C@@H](CCC(N)=O)C(=O)N[C@@H](CCCCN)C(=O)N[C@@H](CCCNC(=N)N)C(=O)N[C@@H](C)C(=O)N[C@@H](C)C(=O)N[C@H](C(=O)N[C@@H](CC(=O)O)C(=O)N[C@H](C(=O)N[C@@H](Cc1ccc(O)cc1)C(=O)N[C@@H](CS)C(=O)O)[C@@H](C)O)C(C)C	Calreticulin, N-domain (Calr, Mus musculus, UniProt P14211)	SPR	–	pH 7.4, 25 °C	9.6 ± 3.8e-06 µM
CC(O)c1c(Oc2ccc(F)c(NC(=O)Cc3cccc(C(F)(F)F)c3)c2)ccc2nc(NC(=O)C3CC3)sc12 (centres unmarked)	RIPK1	binding, competition with immobilised ligand	–	–	0.022 µM
CN(C)c1cc2ccccc2c(N)n1	CUGBP Elav-like family member 1, RRM1/2 domains (CELF1, Homo sapiens, UniProt Q92879, R148A)	isothermal titration calorimetry	–	25 °C	19.9 ± 2.8 µM
Nc1ncnc2c1ncn2[C@@H]1O[C@H](CO)[C@@H](O[C@H]2O[C@H](CO)[C@@H](OP(=O)(O)O)[C@H](OP(=O)(O)O)[C@H]2O)[C@H]1O	Inositol 1,4,5-trisphosphate-gated calcium channel ITPR1, N-terminal region (Itpr1, Rattus norvegicus, UniProt P29994, del318-332)	[3H]IP3 competition binding	N-terminal fragment	cytosol-like medium	0.0772 µM
CC(=O)N[C@H]1[C@H](O[C@H]2[C@H](OS(=O)(=O)O)[C@@H](OS(=O)(=O)O)[C@H](O[C@H]3[C@H](OS(=O)(=O)O)[C@@H](COS(=O)(=O)O)OC[C@@H]3NC(C)=O)O[C@@H]2C(=O)O)O[C@H](COS(=O)(=O)O)[C@@H](OS(=O)(=O)O)[C@@H]1O[C@@H]1O[C@H](C(=O)O)[C@@H](OS(=O)(=O)O)[C@H](OS(=O)(=O)O)[C@H]1OS(=O)(=O)O	Metalloproteinase inhibitor 3	ligand displacement, FP	–	–	0.44 µM
Cc1cc(N2CC[C@@](C#N)(C3(C)CC3)C2=O)cc(C(=O)NCc2cc(F)cc(-c3cnn(C)c3)c2)n1	Bifunctional glutamate/proline--tRNA ligase (EPRS1, Homo sapiens, UniProt P07814)	binding, MST	–	–	0.124 µM
CC(C)(O)C#Cc1cccc(F)c1	Microphthalmia-associated transcription factor (Homo sapiens, UniProt O75030)	binding, NMR	–	–	> 1000 µM
C[C@H](NC(=O)[C@H](C)NC(=O)[C@H](Cc1ccc(O)cc1)NS(=O)(=O)c1cccc2c(N(C)C)cccc12)C(=O)N[C@@H](CCCNC(=N)N)C(=O)N[C@@H](CCCCN)C(=O)N[C@@H](Cc1ccccc1)C(=O)N[C@@H](C)C(=O)N[C@@H](CCCCN)C(=O)O	Rho guanine nucleotide exchange factor TIAM2, PDZ domain (Tiam2, Mus musculus, UniProt Q6ZPF3)	fluorescence anisotropy	–	25 °C, together with: dansylated peptide 1 µM	> 250 µM
CC(C)C[C@H](NC(=O)[C@H](CC(C)C)NC(=O)CNC(=O)[C@@H](NC(=O)[C@H](CC(=O)O)NC(=O)[C@H](CC(=O)O)NC(=O)[C@H](Cc1ccc(O)cc1)NC(=O)[C@H](Cc1ccc(O)cc1)NC(=O)[C@H](CO)NC(=O)[C@@H](NC(=O)[C@@H](NC(=O)CNC(=O)[C@H](Cc1ccccc1)NC(=O)[C@@H](NC(=O)[C@H](CCC(=O)O)NC(=O)[C@@H](N)C(C)C)[C@@H](C)O)[C@@H](C)O)[C@@H](C)O)C(C)C)C(=O)O	Eotaxin (CCL11, Homo sapiens, UniProt P51671)	binding, NMR	–	pH 6.5	140 µM
CC(=O)N[C@@H]1[C@@H](O[C@@H]2O[C@H](C(=O)O)[C@@H](O[C@@H]3O[C@H](COS(=O)(=O)O)[C@@H](OS(=O)(=O)O)[C@H](O[C@@H]4O[C@H](C(=O)O)[C@@H](O[C@@H]5O[C@H](COS(=O)(=O)O)[C@@H](OS(=O)(=O)O)[C@H](O[C@@H]6O[C@H](C(=O)O)[C@@H](OS(=O)(=O)O)[C@H](OS(=O)(=O)O)[C@H]6OS(=O)(=O)O)[C@H]5NC(C)=O)[C@H](OS(=O)(=O)O)[C@H]4OS(=O)(=O)O)[C@H]3NC(C)=O)[C@H](OS(=O)(=O)O)[C@H]2OS(=O)(=O)O)[C@H](OS(=O)(=O)O)[C@@H](COS(=O)(=O)O)O[C@H]1N=[N+]=[N-]	Metalloproteinase inhibitor 3	ligand displacement, FP	–	–	0.67 µM

SMILES	target	assay	system	setting	Kd
OC(Cc1cc(-c2ccc(C(O)C(F)(F)F)s2)sc1-c1ccc(-c2sc(-c3ccc(C(O)C(F)(F)F)s3)cc2CC(O)C(F)(F)F)s1)C(F)(F)F (centres unmarked)	Microtubule-associated protein tau, 0N4R isoform, aggregated (MAPT, Homo sapiens, UniProt P10636)	binding, fluorescence	30% sucrose tau fraction	–	3.04 ± 0.71 µM
COCCOCCOCCOC(=O)c1cnc2cc(-c3c(C)noc3C)c(OC)cc2c1N[C@H](C)c1ccccn1	Bromodomain factor 2 (Trypanosoma brucei brucei, UniProt Q38AM1)	ITC	–	15 °C	no binding
CCCn1c(=O)c2[nH]c(-c3ccc(OCC(=O)NCCNS(=O)(=O)c4cccc5c(N(C)C)cccc45)cc3)nc2n(CCC)c1=O	ADORA1	CRE reporter gene, antagonist	CHO-A1	Gs response, PTX-pretreated overnight, together with: NECA and forskolin	0.0603 µM
[123I]c1ccc2nc(-c3ccc(-n4ccnn4)nc3)cn2c1	Amyloid-beta precursor protein, amyloid-beta plaques (APP, Homo sapiens, UniProt P05067)	–	–	–	0.0018 µM and 0.00183 µM
CC(=O)N[C@@H]1[C@@H](O[C@@H]2O[C@H](C(=O)O)[C@@H](O[C@@H]3O[C@H](COS(=O)(=O)O)[C@@H](OS(=O)(=O)O)[C@H](O[C@@H]4O[C@H](C(=O)O)[C@@H](OS(=O)(=O)O)[C@H](OS(=O)(=O)O)[C@H]4OS(=O)(=O)O)[C@H]3NC(C)=O)[C@H](OS(=O)(=O)O)[C@H]2OS(=O)(=O)O)[C@H](OS(=O)(=O)O)[C@@H](COS(=O)(=O)O)O[C@H]1N=[N+]=[N-]	Metalloproteinase inhibitor 3	ligand displacement, FP	–	–	0.27 µM
C=CCCCCCCO[C@@H]1O[C@H](CO)[C@H](O)[C@H](O[C@@H]2O[C@H](CO)[C@H](O)[C@H](O)[C@H]2O[C@@H]2O[C@@H](C)[C@@H](O)[C@@H](O)[C@@H]2O)[C@H]1O	ABO G235S/G268A/L266M/R176G	methyl-TROSY NMR titration lineshape analysis	–	apo enzyme	1270 ± 20 µM
COc1ccc([C@@H](C#N)N2CCN(C(=O)c3nn(-c4ccccc4)c(=O)c4ccccc34)CC2)cc1	B- and T-lymphocyte attenuator (BTLA, Homo sapiens, UniProt Q7Z6A9)	binding, microscale thermophoresis	–	–	0.531 µM
C=C1C(=O)O[C@@H]2/C=C(\C)[C@@H](OC(C)=O)C/C=C(\COC(C)=O)C[C@@H](OC(=O)/C(C)=C/CO)[C@@H]12	Ubiquitin carboxyl-terminal hydrolase 7 (USP7, Homo sapiens, UniProt Q93009)	binding, SPR	–	–	6.85 µM
CCNC(=O)[C@H]1O[C@@H](n2cnc3c(Nc4ccc(I)cc4)ncnc32)[C@H](O)[C@@H]1O	Adenosine receptor A3 (ADORA3, Homo sapiens, UniProt P0DMS8)	kinetic radioligand binding	–	no GTP, together with: [3H]PSB-11	0.00076 ± 0.00013 µM
Nc1nc2cnc(C(=O)N3CCOC[C@@H]3c3ccc(C(F)(F)F)cc3)cc2c2c1COC2	Protein arginine N-methyltransferase 5, SAM-bound (PRMT5, Homo sapiens, UniProt O14744)	SPR	–	together with: SAM 20 µM	0.00023 µM
CC(C)C[C@H](NC(=O)[C@H](CCC(=O)O)NC(=O)[C@H](CC(=O)O)NC(=O)[C@H](CC(C)C)NC(=O)[C@H](CC(C)C)NC(=O)[C@H](CCCNC(=N)N)NC(=O)[C@H](CC(=O)O)NC(=O)[C@H](CC(C)C)NC(=O)[C@H](CCC(=O)O)NC(=O)[C@H](CO)NC(=O)[C@H](CC(C)C)NC(=O)[C@H](CC(N)=O)NC(=O)CCCCCNC(=O)c1ccc2c(c1)C(=O)OC21c2ccc(N(C)C)cc2Oc2cc(N(C)C)ccc21)C(=O)N[C@@H](CC(N)=O)C(=O)O	Focal adhesion kinase 1, FAT domain (PTK2, Homo sapiens, UniProt Q05397, E948A/K955A/R962A/V932A)	binding, fluorescence polarization saturation	–	two-site mutant KER+V932A	no binding
Cc1cc2nc(NC(=O)C3CC3)sc2c(C)c1Oc1ccc(F)c(NC(=O)Cc2cccc(C(F)(F)F)c2)c1	RIPK1	binding, competition with immobilised ligand	–	–	0.05 µM
CCCn1c(=O)c2[nH]c(-c3ccc(OCC(=O)NCCNC(=O)CCCCCCCNS(=O)(=O)c4cccc5c(N(C)C)cccc45)cc3)nc2n(CCC)c1=O	ADORA1	CRE reporter gene, antagonist	CHO-A1	Gs response, PTX-pretreated overnight, together with: NECA and forskolin	0.0955 µM
CC(=O)N[C@@H]1[C@@H](O[C@@H]2O[C@H](C(=O)O)[C@@H](O[C@@H]3O[C@H](COS(=O)(=O)O)[C@@H](O)[C@H](O[C@@H]4O[C@H](C(=O)O)[C@@H](O)[C@H](O)[C@H]4O)[C@H]3NC(C)=O)[C@H](O)[C@H]2O)[C@H](O)[C@@H](COS(=O)(=O)O)O[C@H]1N=[N+]=[N-]	Bone morphogenetic protein 2 (Homo sapiens, UniProt P12643)	ligand displacement, FP	–	–	185 µM
CCCn1c(=O)c2[nH]c(-c3ccc(OCC(=O)NCCNC(=O)CCCCCNS(=O)(=O)c4ccc(C5=c6cc7c8c(c6Oc6c5cc5c9c6CCCN9CCC5)CCC[N+]=8CCC7)c(S(=O)(=O)[O-])c4)cc3)nc2n(CCC)c1=O	ADORA1	CRE reporter gene, antagonist	CHO-A1	Gs response, PTX-pretreated overnight, together with: NECA and forskolin	0.49 µM
CCCCCCCCO[C@@H]1O[C@H](CO)[C@H](O)[C@H](O)[C@H]1O[C@@H]1O[C@@H](C)[C@@H](O)[C@@H](O)[C@@H]1O	ABO G235S/G268A/L266M/R176G	methyl-TROSY NMR titration lineshape analysis	–	apo enzyme	164 ± 4 µM
